Measurements collected from several papers.
Values joined by “and” are separate records of one study, mostly repeats; a detail may differ.
lasR: Transcriptional activator protein LasR (lasR, Pseudomonas aeruginosa, UniProt P25084)
Chain of UniProt P25084 (whole entry, looked up): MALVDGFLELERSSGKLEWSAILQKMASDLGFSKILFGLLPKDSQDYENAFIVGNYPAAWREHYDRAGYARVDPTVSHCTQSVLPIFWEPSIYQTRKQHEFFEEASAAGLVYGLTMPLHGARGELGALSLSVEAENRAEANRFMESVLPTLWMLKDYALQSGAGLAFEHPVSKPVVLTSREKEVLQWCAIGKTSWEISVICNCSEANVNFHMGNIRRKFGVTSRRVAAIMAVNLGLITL
PDE4D: 3',5'-cyclic-AMP phosphodiesterase 4D (PDE4D, Homo sapiens, UniProt Q08499)
Chain of UniProt Q08499 (whole entry, looked up): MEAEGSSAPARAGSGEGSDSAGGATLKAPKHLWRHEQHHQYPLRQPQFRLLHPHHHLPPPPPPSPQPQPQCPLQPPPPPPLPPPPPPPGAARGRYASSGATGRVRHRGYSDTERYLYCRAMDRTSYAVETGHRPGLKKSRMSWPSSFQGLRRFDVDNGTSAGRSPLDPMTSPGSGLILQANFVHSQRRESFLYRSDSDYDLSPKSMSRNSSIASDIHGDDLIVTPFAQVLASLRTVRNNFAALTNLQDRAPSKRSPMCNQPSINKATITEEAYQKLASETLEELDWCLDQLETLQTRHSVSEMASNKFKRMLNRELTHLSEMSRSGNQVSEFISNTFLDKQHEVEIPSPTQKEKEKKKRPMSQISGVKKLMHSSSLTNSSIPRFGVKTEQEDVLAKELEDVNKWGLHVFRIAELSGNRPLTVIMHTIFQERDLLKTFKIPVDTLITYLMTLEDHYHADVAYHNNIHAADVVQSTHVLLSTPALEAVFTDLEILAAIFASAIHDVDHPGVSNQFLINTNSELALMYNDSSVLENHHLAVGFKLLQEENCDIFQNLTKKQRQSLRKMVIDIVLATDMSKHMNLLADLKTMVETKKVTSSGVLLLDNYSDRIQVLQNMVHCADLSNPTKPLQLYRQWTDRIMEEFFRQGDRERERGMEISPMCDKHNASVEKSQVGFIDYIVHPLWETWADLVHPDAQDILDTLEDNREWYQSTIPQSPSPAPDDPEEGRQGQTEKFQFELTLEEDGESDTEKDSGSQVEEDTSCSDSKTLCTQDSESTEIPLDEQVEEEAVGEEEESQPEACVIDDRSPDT
Chain of UniProt P04049 (whole entry, looked up): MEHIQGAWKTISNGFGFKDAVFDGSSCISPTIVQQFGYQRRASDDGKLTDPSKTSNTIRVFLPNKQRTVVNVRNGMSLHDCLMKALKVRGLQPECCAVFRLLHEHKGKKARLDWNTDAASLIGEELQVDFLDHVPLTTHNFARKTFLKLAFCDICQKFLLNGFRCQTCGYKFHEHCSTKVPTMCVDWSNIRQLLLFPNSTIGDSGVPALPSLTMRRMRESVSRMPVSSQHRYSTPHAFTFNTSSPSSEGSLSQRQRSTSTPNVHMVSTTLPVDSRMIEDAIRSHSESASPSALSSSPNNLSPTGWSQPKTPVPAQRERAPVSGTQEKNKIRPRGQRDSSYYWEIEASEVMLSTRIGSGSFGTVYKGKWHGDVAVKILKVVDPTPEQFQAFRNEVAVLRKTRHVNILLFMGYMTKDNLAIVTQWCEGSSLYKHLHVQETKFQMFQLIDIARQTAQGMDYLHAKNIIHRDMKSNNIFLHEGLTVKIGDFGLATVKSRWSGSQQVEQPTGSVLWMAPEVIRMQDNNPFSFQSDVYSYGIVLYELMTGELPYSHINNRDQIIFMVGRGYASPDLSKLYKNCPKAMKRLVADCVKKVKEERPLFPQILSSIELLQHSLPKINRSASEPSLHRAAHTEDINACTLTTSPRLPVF
Chain of UniProt Q9NYL2 (whole entry, looked up): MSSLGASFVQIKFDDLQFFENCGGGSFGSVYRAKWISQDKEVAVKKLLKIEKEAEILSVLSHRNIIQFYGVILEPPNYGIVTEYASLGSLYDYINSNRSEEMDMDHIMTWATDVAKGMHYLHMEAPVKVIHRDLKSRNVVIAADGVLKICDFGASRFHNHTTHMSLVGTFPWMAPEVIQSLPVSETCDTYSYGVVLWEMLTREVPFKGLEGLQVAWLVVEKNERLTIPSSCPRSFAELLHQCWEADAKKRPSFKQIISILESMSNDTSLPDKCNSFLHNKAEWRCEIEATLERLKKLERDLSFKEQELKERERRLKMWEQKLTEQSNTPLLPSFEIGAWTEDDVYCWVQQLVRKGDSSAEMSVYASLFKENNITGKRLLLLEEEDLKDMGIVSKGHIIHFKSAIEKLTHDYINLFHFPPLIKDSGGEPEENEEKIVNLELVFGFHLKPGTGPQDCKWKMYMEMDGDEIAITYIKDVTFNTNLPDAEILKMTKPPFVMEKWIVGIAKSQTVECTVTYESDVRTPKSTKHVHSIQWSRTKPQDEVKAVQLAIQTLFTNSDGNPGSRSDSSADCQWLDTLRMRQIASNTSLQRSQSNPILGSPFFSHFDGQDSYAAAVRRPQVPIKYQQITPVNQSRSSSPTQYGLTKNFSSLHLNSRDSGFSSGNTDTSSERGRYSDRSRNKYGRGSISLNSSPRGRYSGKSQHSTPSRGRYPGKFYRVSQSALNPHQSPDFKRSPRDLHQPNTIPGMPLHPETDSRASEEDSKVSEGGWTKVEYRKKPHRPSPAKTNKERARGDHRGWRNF
Chain of UniProt Q86U44 (whole entry, looked up): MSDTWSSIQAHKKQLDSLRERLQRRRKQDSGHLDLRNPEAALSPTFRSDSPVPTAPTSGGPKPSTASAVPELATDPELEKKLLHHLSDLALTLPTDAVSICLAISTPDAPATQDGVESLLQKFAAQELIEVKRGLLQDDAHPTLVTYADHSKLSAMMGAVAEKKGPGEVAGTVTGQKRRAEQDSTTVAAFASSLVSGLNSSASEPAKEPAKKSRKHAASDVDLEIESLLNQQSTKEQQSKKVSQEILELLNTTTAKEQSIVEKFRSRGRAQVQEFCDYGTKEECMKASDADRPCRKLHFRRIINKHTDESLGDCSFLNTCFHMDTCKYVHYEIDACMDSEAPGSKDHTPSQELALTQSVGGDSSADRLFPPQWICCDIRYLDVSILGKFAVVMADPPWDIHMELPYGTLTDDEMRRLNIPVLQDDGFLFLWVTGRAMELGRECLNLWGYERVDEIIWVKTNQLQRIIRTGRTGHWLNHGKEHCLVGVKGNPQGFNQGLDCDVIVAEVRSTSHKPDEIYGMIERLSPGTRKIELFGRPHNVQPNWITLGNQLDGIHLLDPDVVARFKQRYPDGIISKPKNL
Chain of UniProt P43403 (whole entry, looked up): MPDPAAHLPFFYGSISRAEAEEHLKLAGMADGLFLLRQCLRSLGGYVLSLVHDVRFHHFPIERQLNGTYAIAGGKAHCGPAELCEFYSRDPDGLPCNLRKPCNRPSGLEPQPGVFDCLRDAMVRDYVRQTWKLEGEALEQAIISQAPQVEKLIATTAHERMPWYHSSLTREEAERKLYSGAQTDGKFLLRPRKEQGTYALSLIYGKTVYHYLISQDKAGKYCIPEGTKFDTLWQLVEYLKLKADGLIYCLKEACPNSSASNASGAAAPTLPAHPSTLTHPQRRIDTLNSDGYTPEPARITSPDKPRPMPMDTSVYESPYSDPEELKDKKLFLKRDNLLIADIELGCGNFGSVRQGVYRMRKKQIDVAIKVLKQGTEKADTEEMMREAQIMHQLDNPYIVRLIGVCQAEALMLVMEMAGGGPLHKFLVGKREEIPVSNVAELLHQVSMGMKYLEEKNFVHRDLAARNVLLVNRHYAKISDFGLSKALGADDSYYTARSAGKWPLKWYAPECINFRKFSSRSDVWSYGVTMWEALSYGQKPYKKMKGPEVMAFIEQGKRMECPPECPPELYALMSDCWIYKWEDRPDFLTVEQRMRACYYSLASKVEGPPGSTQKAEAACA
Chain of UniProt P08913 (whole entry, looked up): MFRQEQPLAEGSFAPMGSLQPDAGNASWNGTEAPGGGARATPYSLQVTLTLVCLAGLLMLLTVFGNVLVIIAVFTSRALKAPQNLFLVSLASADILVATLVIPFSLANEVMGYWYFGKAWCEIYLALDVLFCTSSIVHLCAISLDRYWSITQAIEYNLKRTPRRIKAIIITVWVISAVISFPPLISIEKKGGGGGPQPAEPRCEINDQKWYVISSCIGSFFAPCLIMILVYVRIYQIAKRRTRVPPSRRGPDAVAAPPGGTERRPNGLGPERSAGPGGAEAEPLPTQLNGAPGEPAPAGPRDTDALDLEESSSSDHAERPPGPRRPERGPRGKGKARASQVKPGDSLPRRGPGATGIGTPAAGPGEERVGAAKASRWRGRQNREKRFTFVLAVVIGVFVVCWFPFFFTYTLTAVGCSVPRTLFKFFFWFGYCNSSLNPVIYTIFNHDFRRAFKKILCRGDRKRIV
Chain of UniProt Q9Y2J8 (whole entry, looked up): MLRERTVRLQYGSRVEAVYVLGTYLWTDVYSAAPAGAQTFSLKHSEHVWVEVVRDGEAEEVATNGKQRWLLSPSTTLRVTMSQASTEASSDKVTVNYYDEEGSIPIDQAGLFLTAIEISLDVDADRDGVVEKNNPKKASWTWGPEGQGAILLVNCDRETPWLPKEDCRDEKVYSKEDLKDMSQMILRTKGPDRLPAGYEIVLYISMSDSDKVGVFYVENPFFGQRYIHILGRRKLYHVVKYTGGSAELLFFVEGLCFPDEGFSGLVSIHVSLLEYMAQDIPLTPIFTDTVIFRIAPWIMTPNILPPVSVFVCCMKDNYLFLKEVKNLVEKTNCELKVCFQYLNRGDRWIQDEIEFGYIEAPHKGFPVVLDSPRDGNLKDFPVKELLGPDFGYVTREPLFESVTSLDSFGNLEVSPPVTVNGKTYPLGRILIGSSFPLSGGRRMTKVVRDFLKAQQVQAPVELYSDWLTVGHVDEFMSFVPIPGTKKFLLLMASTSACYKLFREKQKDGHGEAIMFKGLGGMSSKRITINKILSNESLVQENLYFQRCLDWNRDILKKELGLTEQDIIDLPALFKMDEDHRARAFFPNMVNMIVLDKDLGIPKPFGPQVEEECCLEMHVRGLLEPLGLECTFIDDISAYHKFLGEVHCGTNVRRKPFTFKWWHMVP

CCCC(=O)CC(=O)N[C@H]1CCOC1=O — inhibition (lasR; reporter gene, antagonist; Pseudomonas aeruginosa PAO-JP2; 100 µM, plasI-LVAgfp reporter, together with: OdDHL 150 nM): 51%
N[C@H](C(=O)N1CCCC1)C1CCN(c2nccc3c(-c4ncc(Cl)cc4Cl)cccc23)CC1 — inhibition (PADI2 (Homo sapiens, UniProt Q9Y2J8); enzyme activity, inhibitor; 9.6 µM, together with: Ca2+ 0.25 mM): 99.4%
OB(O)c1ccc(C(F)(F)F)s1 — inhibition (Uncharacterized hydrolase SAUSA300_2518 (Staphylococcus aureus, UniProt Q2FDS6); enzyme activity, inhibitor; 50 µM): 97.4%
C[C@H](NCc1ccc(-c2ccc(C(F)(F)F)cc2)cc1)C(N)=O — inhibition (RAF1 (Homo sapiens, UniProt P04049); cell-free assay, competition with immobilised ligand; 1 µM): 3%
CS(C)(=O)=Nc1ccc(-c2ccc(-c3nc4cc(O[C@@H]5CO[C@H]6[C@@H]5OC[C@H]6O)[nH]c4cc3F)cc2)cc1 — inhibition (STK3 (Homo sapiens, UniProt Q13188); enzyme activity, inhibitor; 10 µM): 11%
Cc1cc(-c2ccc3ccccc3c2)nnc1NCCN1CCN(C)CC1 — inhibition (PDE4D; enzyme activity; 10000 nM): 4%
CCC1CC(c2ccc(C(=O)O)cc2C)=NN1c1ccc(C#N)c(Cl)c1 (stereo not drawn) — inhibition (N6-adenosine-methyltransferase catalytic subunit, with METTL14 (METTL3, Homo sapiens, UniProt Q86U44); enzyme activity; 10 µM): 0%
CN(C)[C@H]1C[C@@]23CC[C@@]4(O2)C(=CC[C@]2(C)[C@@H](c5ccc6ccncc6c5)CC[C@H]24)C=C3[C@@H](O)[C@@H]1O — inhibition (STK4 (Homo sapiens, UniProt Q13043); ATP probe labelling, inhibitor, KiNativ profiling; 1 µM): 2.6%
CCCCCCCCCC(=O)CC(=O)NC1CCCCC1=O (stereo not drawn) — inhibition (lasR; reporter gene, antagonist; Pseudomonas aeruginosa PAO-JP2; 100 µM, plasI-LVAgfp reporter, together with: OdDHL 150 nM): 32%
C=CC(=O)Nc1cc(-c2nn(C3CCC(N4CCN(C(C)=O)CC4)CC3)c3ncnc(N)c23)ccc1Oc1ccccc1 (stereo not drawn) — inhibition (MAP3K20 (Homo sapiens, UniProt Q9NYL2); inhibitor, KiNativ profiling; biochemical; 2 µM): 15.7%
COc1c(/C=C/C(=O)c2ccc(O)cc2)ccc(O)c1O — inhibition (PDE4D; enzyme activity, inhibitor, radiometric; 5 µM): 50.4%
CN[C@@H]1[C@H](O)[C@H](NC)[C@H]2O[C@]3(O)[C@H](O[C@@H]2[C@H]1O)O[C@H](C)C[C@H]3NC(=O)Cc1cc(Cl)ccn1 — inhibition (ADRA2A (Homo sapiens, UniProt P08913); ligand displacement, radioligand; 10 µM): 0%
CC(=O)NC[C@@H]1C[C@@H](O)[C@H]2[C@H](O)C[C@@H](CO)N12 — inhibition (β-N-acetylglucosaminidase; enzyme activity, inhibitor, colorimetric; Canavalia ensiformis; 75 nM, together with: p-nitrophenyl GlcNAc substrate): 42.8% and 33.3%
O=C(O)c1ccccc1/C=N/Nc1nc(-c2ccccc2Cl)cs1 — inhibition (FLT4 (Homo sapiens, UniProt P35916); enzyme activity, inhibitor; 1 µM): -0.86%
CCOC(=O)[C@](CC)(CCCSCCOCCOCCNC(=O)c1ccc(-c2c3ccc(=N)c(S(=O)(=O)O)c-3oc3c(S(=O)(=O)O)c(N)ccc23)c(C(=O)O)c1)NC(=O)c1ccc(C2CC2)c(Cc2ccc(F)cc2)n1 — inhibition (ZAP70 (Homo sapiens, UniProt P43403); ligand displacement, radioligand; 10 µM): 35%
O=C(CCc1ccc(Br)cc1)N[C@H]1CCOC1=O — inhibition (lasR; reporter gene, antagonist; Pseudomonas aeruginosa PAO-JP2; 100 µM, plasI-LVAgfp reporter, together with: OdDHL 150 nM): 63%
CN(/N=C/c1ccccc1C(=O)O)c1nc(-c2ccccc2Cl)cs1 — inhibition (FGFR2 (Homo sapiens, UniProt P21802); kinase activity; 1 µM, mean): 1.39%
CC(C)[C@H]1NC(=O)C[C@H]2/C=C/CCSSC[C@@H](NC1=O)C(=O)N[C@H](Cc1cccc3ccccc13)C(=O)NCC(=O)O2 — inhibition (PDGFRA (Homo sapiens, UniProt P16234, T674I); enzyme activity, inhibitor; 10 µM): 10.2%

A few entries again:
CN(C)[C@H]1C[C@@]23CC[C@@]4(O2)C(=CC[C@]2(C)[C@@H](c5ccc6ccncc6c5)CC[C@H]24)C=C3[C@@H](O)[C@@H]1O — inhibition (STK4 (Homo sapiens, UniProt Q13043); ATP probe labelling, inhibitor, KiNativ profiling; 1 µM): 2.6%
CCCCCCCCCC(=O)CC(=O)NC1CCCCC1=O (stereo not drawn) — inhibition (lasR; reporter gene, antagonist; Pseudomonas aeruginosa PAO-JP2; 100 µM, plasI-LVAgfp reporter, together with: OdDHL 150 nM): 32%
COc1c(/C=C/C(=O)c2ccc(O)cc2)ccc(O)c1O — inhibition (PDE4D; enzyme activity, inhibitor, radiometric; 5 µM): 50.4%
